Assay results collected from several papers.
Each line is one published result; not all experiments were run side by side. Numbers after ± are the reported error.
gag-pol integrase: Gag-Pol polyprotein, integrase (gag-pol, Human immunodeficiency virus type 1 group M subtype B, UniProt P04585)
F fusion protein: Fusion glycoprotein F0, fusion protein (F, Parainfluenza virus 5, UniProt P04849)
Sequence of UniProt P04849 (whole entry, looked up): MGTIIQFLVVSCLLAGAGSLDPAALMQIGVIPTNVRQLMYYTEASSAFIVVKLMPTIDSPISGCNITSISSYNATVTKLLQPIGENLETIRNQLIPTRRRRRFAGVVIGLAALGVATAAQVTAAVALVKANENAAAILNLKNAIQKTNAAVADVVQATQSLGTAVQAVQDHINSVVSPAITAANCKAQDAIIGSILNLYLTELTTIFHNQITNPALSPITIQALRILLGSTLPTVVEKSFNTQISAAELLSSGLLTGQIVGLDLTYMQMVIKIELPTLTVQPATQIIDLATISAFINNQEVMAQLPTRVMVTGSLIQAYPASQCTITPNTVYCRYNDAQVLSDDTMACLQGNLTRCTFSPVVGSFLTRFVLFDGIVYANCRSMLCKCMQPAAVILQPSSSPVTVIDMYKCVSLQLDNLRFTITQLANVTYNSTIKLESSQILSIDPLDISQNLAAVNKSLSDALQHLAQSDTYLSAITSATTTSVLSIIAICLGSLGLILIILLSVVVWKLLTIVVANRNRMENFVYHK
Sequence of UniProt A0A024B7W1 (whole entry, looked up): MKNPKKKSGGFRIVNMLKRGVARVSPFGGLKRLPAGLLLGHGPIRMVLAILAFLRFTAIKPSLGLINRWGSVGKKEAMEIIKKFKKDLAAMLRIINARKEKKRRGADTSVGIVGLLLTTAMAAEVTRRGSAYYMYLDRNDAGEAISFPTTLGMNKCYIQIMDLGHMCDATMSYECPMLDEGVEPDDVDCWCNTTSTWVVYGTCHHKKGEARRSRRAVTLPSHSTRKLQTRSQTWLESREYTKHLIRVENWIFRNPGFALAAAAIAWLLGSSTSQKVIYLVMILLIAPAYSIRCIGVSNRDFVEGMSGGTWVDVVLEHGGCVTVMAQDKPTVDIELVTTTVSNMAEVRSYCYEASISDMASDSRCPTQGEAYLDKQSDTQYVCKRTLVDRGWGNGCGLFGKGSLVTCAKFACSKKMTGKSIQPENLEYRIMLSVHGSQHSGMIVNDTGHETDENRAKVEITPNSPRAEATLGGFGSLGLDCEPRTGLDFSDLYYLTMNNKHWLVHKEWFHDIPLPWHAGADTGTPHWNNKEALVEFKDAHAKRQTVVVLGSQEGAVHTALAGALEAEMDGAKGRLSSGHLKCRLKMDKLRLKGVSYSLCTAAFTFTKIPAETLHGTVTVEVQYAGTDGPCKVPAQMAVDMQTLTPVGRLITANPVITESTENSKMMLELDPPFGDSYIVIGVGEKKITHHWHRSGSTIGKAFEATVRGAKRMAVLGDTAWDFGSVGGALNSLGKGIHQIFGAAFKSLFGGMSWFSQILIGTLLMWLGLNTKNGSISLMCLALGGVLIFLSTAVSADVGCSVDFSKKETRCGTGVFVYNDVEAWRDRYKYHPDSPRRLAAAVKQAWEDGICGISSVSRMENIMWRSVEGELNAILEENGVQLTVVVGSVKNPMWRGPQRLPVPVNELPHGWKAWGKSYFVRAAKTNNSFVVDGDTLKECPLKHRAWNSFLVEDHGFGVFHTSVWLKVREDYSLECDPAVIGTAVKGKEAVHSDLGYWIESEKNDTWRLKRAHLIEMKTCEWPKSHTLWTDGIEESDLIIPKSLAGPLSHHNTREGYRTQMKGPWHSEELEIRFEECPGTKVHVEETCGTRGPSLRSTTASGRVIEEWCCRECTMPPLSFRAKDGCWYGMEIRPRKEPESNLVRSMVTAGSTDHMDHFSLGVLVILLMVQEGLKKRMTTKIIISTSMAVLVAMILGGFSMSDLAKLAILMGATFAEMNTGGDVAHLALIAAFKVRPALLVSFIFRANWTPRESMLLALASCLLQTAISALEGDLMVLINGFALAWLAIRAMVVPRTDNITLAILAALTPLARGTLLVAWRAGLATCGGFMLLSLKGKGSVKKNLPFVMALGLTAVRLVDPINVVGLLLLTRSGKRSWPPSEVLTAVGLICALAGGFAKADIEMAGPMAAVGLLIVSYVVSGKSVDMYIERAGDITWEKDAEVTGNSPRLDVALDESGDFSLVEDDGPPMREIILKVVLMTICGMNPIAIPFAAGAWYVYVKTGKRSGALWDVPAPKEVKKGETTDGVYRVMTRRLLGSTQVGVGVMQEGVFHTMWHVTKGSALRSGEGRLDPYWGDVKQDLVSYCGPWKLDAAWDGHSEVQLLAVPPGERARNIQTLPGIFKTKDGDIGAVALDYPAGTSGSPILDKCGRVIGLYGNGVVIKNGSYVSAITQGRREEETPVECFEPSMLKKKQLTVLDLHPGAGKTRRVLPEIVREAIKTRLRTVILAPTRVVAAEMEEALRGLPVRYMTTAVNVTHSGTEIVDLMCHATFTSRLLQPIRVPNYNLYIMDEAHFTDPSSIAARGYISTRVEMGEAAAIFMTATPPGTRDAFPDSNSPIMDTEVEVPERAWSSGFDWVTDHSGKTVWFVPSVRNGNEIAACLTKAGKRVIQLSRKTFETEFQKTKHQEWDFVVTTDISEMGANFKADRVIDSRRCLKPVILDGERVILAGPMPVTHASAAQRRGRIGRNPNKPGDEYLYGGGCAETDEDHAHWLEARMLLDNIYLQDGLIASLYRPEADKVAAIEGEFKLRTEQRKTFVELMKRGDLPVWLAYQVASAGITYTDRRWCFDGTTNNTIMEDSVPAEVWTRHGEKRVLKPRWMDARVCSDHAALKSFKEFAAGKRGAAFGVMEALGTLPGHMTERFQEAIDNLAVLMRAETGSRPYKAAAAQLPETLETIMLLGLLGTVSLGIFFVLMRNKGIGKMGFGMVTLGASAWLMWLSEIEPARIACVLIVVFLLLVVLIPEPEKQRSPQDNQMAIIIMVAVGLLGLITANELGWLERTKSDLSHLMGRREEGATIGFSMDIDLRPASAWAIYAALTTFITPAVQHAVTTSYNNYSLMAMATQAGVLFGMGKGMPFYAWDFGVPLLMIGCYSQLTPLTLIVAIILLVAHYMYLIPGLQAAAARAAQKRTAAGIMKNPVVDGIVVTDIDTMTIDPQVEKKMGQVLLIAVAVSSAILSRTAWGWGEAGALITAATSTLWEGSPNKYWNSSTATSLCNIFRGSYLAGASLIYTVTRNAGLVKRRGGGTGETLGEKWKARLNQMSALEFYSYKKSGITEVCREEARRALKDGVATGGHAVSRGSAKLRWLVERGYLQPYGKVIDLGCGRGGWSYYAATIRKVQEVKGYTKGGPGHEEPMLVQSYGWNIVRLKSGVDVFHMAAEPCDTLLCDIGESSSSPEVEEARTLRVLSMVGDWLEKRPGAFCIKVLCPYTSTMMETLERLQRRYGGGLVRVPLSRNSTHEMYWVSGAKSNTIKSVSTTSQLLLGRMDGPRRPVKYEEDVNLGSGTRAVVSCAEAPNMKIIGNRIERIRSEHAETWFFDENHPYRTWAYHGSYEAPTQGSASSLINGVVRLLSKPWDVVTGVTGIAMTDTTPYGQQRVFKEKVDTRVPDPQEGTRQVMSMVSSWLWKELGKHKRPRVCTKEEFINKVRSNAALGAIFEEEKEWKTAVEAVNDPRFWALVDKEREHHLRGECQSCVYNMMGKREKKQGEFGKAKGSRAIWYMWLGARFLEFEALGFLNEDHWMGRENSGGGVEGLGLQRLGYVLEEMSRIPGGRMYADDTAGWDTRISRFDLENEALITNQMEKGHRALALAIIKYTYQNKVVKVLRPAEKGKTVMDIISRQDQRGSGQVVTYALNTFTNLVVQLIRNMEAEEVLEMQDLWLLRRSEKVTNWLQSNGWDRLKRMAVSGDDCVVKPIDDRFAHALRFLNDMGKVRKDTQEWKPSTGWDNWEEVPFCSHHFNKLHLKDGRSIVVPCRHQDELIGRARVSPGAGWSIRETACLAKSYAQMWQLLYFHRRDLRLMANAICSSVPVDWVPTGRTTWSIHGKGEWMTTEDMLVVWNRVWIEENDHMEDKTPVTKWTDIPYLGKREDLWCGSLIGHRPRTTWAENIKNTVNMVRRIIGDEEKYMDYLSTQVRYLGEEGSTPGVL
Sequence of UniProt P10226 (whole entry, looked up): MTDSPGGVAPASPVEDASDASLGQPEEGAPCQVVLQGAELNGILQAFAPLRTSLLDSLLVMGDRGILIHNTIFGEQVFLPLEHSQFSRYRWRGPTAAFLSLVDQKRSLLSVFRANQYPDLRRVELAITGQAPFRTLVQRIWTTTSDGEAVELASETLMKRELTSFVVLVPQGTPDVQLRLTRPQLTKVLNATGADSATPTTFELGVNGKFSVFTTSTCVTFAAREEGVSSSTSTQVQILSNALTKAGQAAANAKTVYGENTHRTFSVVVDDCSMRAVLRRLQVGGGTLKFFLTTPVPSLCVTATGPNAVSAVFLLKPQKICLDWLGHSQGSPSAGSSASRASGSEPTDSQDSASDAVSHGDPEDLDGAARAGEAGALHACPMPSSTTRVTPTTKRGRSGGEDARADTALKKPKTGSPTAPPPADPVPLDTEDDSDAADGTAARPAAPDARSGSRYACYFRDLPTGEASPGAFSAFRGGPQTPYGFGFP
Sequence of UniProt P32300 (whole entry, looked up): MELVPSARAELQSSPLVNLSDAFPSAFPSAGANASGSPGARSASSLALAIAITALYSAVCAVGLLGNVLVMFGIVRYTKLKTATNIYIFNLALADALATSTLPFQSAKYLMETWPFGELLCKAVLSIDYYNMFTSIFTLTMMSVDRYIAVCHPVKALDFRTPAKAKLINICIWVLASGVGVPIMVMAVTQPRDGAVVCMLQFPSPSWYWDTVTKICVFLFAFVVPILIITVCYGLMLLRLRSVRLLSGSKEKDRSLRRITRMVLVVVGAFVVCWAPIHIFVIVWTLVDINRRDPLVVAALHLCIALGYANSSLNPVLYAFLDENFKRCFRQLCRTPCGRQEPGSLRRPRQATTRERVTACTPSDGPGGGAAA

`CC(C)C[C@@H]1NC(=O)[C@H](Cc2c[nH]c3ccccc23)NC(=O)[C@H](Cc2ccc(O)cc2)NC(=O)[C@H](CCCNC(=N)N)NC(=O)[C@@H](NC(=O)[C@@H](N)CCC(=O)O)CSSC[C@@H]2NC(=O)[C@@H]3CSSC[C@@H](C(=O)N[C@H](C(=O)N[C@@H](Cc4c[nH]c5ccccc45)C(=O)N[C@@H](CC(=O)O)C(=O)NCC(=O)N[C@H](C(=O)N[C@@H](Cc4ccccc4)C(=O)N[C@@H](CO)C(=O)O)[C@@H](C)O)C(C)C)NC(=O)[C@H](Cc4c[nH]c5ccccc45)NC(=O)CNC(=O)[C@H](Cc4c[nH]cn4)NC(=O)[C@H](CCCNC(=N)N)NC(=O)[C@H](CCCNC(=N)N)NC(=O)[C@H](CO)NC(=O)[C@H](CSSC[C@H](NC(=O)CNC(=O)CNC1=O)C(=O)N[C@@H](CO)C(=O)N[C@@H](C)C(=O)NCC(=O)N[C@@H](CCC(N)=O)C(=O)N[C@@H]([C@@H](C)O)C(=O)N3)NC(=O)[C@H](C(C)C)NC(=O)[C@H](CC(C)C)NC(=O)[C@H](Cc1c[nH]cn1)NC(=O)[C@H](CCCCN)NC2=O` gave an IC50 of 220 nM (CACNA1G (Homo sapiens, UniProt O43497); calcium signal, antagonist, fluorescence).
For `C=CCCC[C@](C)(N)C(=O)N[C@@H](C)C(=O)N[C@@H](Cc1ccc(O)cc1)C(=O)N[C@@H](Cc1ccccc1)C(=O)N[C@@](C)(CCCC=C)C(=O)N[C@@H](CC(C)C)C(=O)N[C@@H](CCCCN)C(=O)N[C@@H](CC(C)C)C(=O)N[C@@H](C)C(=O)NCC(=O)N[C@@H](CCCNC(=N)N)C(=O)N[C@@H](Cc1c[nH]c2ccccc12)C(N)=O`, the IC50 was 15000 ± 5000 nM (gag-pol integrase; integrase strand transfer, inhibitor).
For `CSCC[C@H](NC(=O)[C@H](CCCNC(=N)N)NC(=O)[C@H](CCCNC(=N)N)NC(=O)[C@@H](NC(=O)[C@@H](N)CCC(=O)O)[C@@H](C)O)C(=O)N[C@@H](CC(C)C)C(=O)N[C@@H](Cc1c[nH]cn1)C(=O)N[C@@H](CCCNC(=N)N)C(=O)N[C@@H](C)C(=O)N[C@@H](Cc1ccccc1)C(=O)N[C@@H](CC(=O)O)C(=O)N[C@H](C(=O)N[C@@H](CC(C)C)C(=O)N[C@@H](C)C(=O)O)[C@@H](C)O`, the IC50 was over 200000 nM (DNA polymerase processivity factor, with UL42 processivity factor (Human herpesvirus 1, UniProt P10226); processive DNA synthesis, inhibitor; 30 min, 37 °C).
`O=C1c2ccc(O)c(O)c2C(=O)N1Cc1cccc(Cl)c1F` gave an IC50 of 1600 ± 100 nM (Gag-Pol polyprotein, integrase (gag-pol, Human immunodeficiency virus 1, UniProt P12497, Y1290R); enzyme activity, inhibitor).
The IC50 of `C=CCCC[C@H](NC(=O)[C@H](C)NC(=O)[C@H](CCC(=O)O)NC(C)=O)C(=O)N[C@H](C(=O)N[C@@H](CCCNC(=N)N)C(=O)N[C@H](C(=O)N[C@@H](CCCC=C)C(=O)N[C@@H](CCC(N)=O)C(=O)N[C@@H](CCC(N)=O)C(=O)N[C@@H](CC(C)C)C(=O)N[C@@H](CC(C)C)C(=O)N[C@@H](Cc1ccccc1)C(=O)N[C@H](C(=O)N[C@@H](Cc1c[nH]cn1)C(=O)N[C@@H](Cc1ccccc1)C(=O)N[C@@H](CCCNC(=N)N)C(=O)N[C@H](C(=O)NCC(N)=O)[C@@H](C)CC)[C@@H](C)CC)[C@@H](C)CC)[C@@H](C)CC` is reported as 4400 ± 400 nM (gag-pol integrase; strand transfer, inhibitor; HIV-1).
`CC[C@H](C)[C@H](NC(=O)[C@H](C)NC(=O)[C@H](CO)NC(=O)[C@H](CC(C)C)NC(=O)[C@H](Cc1ccc(O)cc1)NC(=O)[C@@H](NC(=O)[C@H](CC(=O)O)NC(=O)[C@H](CO)NC(=O)[C@H](CCC(N)=O)NC(=O)[C@H](C)NC(=O)[C@H](CC(C)C)NC(=O)[C@H](Cc1c[nH]cn1)NC(=O)[C@H](CCC(N)=O)NC(=O)[C@H](CC(C)C)NC(=O)[C@H](C)NC(=O)[C@H](CC(=O)O)NC(=O)[C@H](CO)NC(=O)[C@H](CC(C)C)NC(=O)[C@H](CO)NC(=O)[C@H](CCCCN)NC(=O)[C@H](CC(N)=O)NC(=O)[C@@H](NC(=O)[C@H](C)NC(=O)[C@H](C)NC(=O)[C@H](CC(C)C)NC(=O)[C@H](CC(N)=O)NC(=O)[C@H](CCC(N)=O)NC(=O)[C@H](CO)NC(=O)[C@@H](NC(=O)[C@H](CC(=O)O)NC(=O)CNC(=O)[C@@H]1CCCN1C(=O)[C@H](CC(=O)O)NC(=O)[C@@H](NC(=O)[C@H](CO)NC(=O)[C@H](CC(C)C)NC(=O)[C@@H](NC(=O)[C@H](CCC(N)=O)NC(=O)[C@H](CO)NC(=O)[C@H](CO)NC(=O)[C@H](CCC(=O)O)NC(=O)[C@H](CC(C)C)NC(=O)[C@@H](N)CCCCN)[C@@H](C)CC)[C@@H](C)CC)[C@@H](C)CC)C(C)C)[C@@H](C)O)C(=O)O` gave an IC50 of 150 ± 19 nM (F fusion protein; cell-cell fusion, inhibitor, luciferase reporter; Vero plus BSR-T7 cells; 6 h, 37 °C, together with: SV5 F and HN).
The IC50 of `C=CCCC[C@H](NC(=O)[C@H](CC(C)C)NC(=O)[C@H](CCC(N)=O)NC(=O)[C@H](CCC(N)=O)NC(=O)[C@H](CCCC=C)NC(=O)[C@@H](NC(=O)[C@H](CCCNC(=N)N)NC(=O)[C@@H](NC(=O)[C@@H](NC(=O)[C@H](C)NC(=O)[C@H](CCC(=O)O)NC(C)=O)[C@@H](C)CC)[C@@H](C)CC)[C@@H](C)CC)C(=O)N[C@@H](Cc1ccccc1)C(=O)N[C@H](C(=O)N[C@@H](Cc1c[nH]cn1)C(=O)N[C@@H](Cc1ccccc1)C(=O)N[C@@H](CCCNC(=N)N)C(=O)N[C@H](C(=O)NCC(N)=O)[C@@H](C)CC)[C@@H](C)CC` is reported as 2100 ± 200 nM (gag-pol integrase; 3′-end processing, inhibitor; HIV-1).
`CC[C@H](C)[C@H](NC(=O)[C@H](C)NC(=O)[C@H](CO)NC(=O)[C@H](CC(C)C)NC(=O)[C@H](Cc1ccc(O)cc1)NC(=O)[C@@H](NC(=O)[C@H](CC(=O)O)NC(=O)[C@H](CO)NC(=O)[C@H](CCC(N)=O)NC(=O)[C@H](C)NC(=O)[C@H](CC(C)C)NC(=O)[C@H](Cc1c[nH]cn1)NC(=O)[C@H](CCC(N)=O)NC(=O)[C@H](CC(C)C)NC(=O)[C@H](C)NC(=O)[C@H](CC(=O)O)NC(=O)[C@H](CO)NC(=O)[C@H](CC(C)C)NC(=O)[C@H](CO)NC(=O)[C@H](CCCCN)NC(=O)[C@H](CC(N)=O)NC(=O)[C@@H](NC(=O)[C@H](C)NC(=O)[C@H](C)NC(=O)[C@H](CC(C)C)NC(=O)[C@H](CC(N)=O)NC(=O)[C@H](CCC(N)=O)NC(=O)[C@H](CO)NC(=O)[C@H](CC(C)C)NC(=O)[C@H](CC(=O)O)NC(=O)[C@H](CC(C)C)NC(=O)[C@@H]1CCCN1C(=O)[C@H](CC(=O)O)NC(=O)[C@@H](NC(=O)[C@H](CO)NC(=O)[C@H](CC(C)C)NC(=O)[C@@H](NC(=O)[C@H](CCC(N)=O)NC(=O)[C@H](CO)NC(=O)[C@H](CO)NC(=O)[C@H](CCC(=O)O)NC(=O)[C@H](CC(C)C)NC(=O)[C@@H](N)CCCCN)[C@@H](C)CC)[C@@H](C)CC)C(C)C)[C@@H](C)O)C(=O)O` has an IC50 of 54 ± 5 nM (F fusion protein; cell-cell fusion, inhibitor, luciferase reporter; Vero plus BSR-T7 cells; 6 h, 37 °C, together with: SV5 F and HN).
With `C[C@H](NC(=O)[C@H](Cc1ccncc1)NC(=O)[C@H](C)NC(=O)[C@H](CCCCN)NC(=O)[C@H](CCCNC(=N)N)NC(=O)[C@H](CCCCN)NC(=O)[C@H](C)NC(=O)[C@@H](N)CO)C(=O)N[C@@H](CCCCN)C(=O)N[C@@H](Cc1ccccc1)C(=O)N[C@@H](CCCCN)C(=O)N[C@@H](C)C(=O)N[C@@H](CCN)C(N)=O` the IC50 was 3800 ± 1100 nM (Genome polyprotein, NS2B-NS3 protease (ZIKV, UniProt A0A024B7W1); protease activity, inhibitor, FRET; Zika virus).
`NC(=O)[C@H](CO)NC(=O)[C@@H]1CCCN1C(=O)[C@H](Cc1ccc(O)cc1)NC(=O)CNC(=O)[C@H](Cc1ccccc1)NC(=O)[C@@H](CCCCN=C=S)NC(=O)[C@@H](N)Cc1ccc(O)cc1` gave an IC50 of 97.1 ± 4.9 nM (Oprd1 (Mus musculus, UniProt P32300); radioligand binding; CHO cells; together with: 0.15 nM [3H]DPDPE).

For quick reference, copied from above:
For `CSCC[C@H](NC(=O)[C@H](CCCNC(=N)N)NC(=O)[C@H](CCCNC(=N)N)NC(=O)[C@@H](NC(=O)[C@@H](N)CCC(=O)O)[C@@H](C)O)C(=O)N[C@@H](CC(C)C)C(=O)N[C@@H](Cc1c[nH]cn1)C(=O)N[C@@H](CCCNC(=N)N)C(=O)N[C@@H](C)C(=O)N[C@@H](Cc1ccccc1)C(=O)N[C@@H](CC(=O)O)C(=O)N[C@H](C(=O)N[C@@H](CC(C)C)C(=O)N[C@@H](C)C(=O)O)[C@@H](C)O`, the IC50 was over 200000 nM (DNA polymerase processivity factor, with UL42 processivity factor (Human herpesvirus 1, UniProt P10226); processive DNA synthesis, inhibitor; 30 min, 37 °C).
